Assay results collected from several papers.
Each numbered part is a random draw from the data of one study; scales do not carry over between parts. “And” joins repeats or separate records; there may be more than shown.
Chain of UniProt O14730 (whole entry, looked up): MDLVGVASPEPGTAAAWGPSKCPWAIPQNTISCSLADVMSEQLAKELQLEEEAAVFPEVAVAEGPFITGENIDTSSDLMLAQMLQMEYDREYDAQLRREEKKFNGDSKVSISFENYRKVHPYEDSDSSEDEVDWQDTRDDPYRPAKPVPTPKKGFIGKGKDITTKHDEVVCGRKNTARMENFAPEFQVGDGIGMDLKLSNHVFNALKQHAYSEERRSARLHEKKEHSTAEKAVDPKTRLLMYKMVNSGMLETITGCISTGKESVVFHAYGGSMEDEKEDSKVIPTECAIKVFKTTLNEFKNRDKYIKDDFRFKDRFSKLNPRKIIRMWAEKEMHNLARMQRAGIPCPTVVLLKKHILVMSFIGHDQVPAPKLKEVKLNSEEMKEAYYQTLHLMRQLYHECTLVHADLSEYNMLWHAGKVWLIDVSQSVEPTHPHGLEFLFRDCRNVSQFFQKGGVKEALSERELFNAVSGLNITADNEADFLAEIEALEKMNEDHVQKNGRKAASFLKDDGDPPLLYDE
Chain of UniProt Q13554 (whole entry, looked up): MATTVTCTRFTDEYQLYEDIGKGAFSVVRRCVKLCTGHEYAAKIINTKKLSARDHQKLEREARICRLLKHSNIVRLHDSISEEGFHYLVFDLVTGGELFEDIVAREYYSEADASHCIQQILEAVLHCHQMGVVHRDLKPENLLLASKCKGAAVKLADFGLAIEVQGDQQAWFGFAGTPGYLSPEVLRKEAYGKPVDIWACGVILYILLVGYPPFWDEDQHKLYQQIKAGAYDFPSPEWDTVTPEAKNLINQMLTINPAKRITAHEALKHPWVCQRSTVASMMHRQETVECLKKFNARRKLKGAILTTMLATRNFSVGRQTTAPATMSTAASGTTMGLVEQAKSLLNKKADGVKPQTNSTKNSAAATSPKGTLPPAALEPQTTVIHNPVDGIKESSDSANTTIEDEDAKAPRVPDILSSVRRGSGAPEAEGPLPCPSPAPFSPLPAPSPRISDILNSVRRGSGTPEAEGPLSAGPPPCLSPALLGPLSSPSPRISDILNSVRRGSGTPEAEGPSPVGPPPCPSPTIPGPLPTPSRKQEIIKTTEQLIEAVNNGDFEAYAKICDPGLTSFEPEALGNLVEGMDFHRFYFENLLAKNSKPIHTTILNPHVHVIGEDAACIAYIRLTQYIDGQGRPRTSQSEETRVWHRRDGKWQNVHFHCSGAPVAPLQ
Chain of UniProt Q9UQ88 (whole entry, looked up): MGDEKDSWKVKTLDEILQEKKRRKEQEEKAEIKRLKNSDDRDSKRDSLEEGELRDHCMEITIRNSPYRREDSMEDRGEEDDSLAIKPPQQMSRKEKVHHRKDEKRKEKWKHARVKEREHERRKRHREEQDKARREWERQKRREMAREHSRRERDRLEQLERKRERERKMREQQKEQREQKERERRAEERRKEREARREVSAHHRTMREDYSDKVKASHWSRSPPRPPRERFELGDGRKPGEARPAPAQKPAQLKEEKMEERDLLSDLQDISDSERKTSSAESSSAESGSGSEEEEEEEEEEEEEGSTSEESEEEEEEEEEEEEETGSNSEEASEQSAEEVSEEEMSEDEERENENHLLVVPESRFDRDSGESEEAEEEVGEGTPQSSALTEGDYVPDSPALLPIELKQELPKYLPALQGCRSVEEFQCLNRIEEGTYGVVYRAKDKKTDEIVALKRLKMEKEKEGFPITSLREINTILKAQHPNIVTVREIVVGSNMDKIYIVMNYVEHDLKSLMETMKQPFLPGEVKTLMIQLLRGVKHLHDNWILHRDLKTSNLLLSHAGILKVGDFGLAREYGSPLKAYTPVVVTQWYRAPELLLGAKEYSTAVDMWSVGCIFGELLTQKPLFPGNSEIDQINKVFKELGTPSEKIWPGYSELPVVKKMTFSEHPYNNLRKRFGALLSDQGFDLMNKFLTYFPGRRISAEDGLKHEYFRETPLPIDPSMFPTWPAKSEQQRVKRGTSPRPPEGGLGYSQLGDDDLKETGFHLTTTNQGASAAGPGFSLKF
Chain of UniProt P57078 (whole entry, looked up): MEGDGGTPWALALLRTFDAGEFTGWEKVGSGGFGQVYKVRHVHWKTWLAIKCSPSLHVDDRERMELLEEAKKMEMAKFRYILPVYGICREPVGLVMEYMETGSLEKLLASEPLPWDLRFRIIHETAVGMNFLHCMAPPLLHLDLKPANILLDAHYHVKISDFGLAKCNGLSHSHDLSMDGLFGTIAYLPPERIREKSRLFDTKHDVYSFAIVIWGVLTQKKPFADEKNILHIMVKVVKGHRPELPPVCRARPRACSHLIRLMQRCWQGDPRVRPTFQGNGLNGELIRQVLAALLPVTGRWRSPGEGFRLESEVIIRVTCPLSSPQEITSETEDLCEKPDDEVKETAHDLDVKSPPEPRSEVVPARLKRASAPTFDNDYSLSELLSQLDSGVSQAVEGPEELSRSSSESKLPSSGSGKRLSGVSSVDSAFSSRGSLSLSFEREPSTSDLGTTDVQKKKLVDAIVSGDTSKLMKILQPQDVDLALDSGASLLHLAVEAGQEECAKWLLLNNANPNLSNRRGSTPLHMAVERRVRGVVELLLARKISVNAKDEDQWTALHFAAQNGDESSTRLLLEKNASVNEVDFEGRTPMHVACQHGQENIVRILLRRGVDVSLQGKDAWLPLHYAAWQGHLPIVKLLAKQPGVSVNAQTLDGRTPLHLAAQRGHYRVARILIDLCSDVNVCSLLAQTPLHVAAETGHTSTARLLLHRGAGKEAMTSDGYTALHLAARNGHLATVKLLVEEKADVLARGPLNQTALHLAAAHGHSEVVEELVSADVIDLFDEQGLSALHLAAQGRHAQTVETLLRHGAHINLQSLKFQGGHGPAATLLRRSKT
Chain of UniProt Q96J92 (whole entry, looked up): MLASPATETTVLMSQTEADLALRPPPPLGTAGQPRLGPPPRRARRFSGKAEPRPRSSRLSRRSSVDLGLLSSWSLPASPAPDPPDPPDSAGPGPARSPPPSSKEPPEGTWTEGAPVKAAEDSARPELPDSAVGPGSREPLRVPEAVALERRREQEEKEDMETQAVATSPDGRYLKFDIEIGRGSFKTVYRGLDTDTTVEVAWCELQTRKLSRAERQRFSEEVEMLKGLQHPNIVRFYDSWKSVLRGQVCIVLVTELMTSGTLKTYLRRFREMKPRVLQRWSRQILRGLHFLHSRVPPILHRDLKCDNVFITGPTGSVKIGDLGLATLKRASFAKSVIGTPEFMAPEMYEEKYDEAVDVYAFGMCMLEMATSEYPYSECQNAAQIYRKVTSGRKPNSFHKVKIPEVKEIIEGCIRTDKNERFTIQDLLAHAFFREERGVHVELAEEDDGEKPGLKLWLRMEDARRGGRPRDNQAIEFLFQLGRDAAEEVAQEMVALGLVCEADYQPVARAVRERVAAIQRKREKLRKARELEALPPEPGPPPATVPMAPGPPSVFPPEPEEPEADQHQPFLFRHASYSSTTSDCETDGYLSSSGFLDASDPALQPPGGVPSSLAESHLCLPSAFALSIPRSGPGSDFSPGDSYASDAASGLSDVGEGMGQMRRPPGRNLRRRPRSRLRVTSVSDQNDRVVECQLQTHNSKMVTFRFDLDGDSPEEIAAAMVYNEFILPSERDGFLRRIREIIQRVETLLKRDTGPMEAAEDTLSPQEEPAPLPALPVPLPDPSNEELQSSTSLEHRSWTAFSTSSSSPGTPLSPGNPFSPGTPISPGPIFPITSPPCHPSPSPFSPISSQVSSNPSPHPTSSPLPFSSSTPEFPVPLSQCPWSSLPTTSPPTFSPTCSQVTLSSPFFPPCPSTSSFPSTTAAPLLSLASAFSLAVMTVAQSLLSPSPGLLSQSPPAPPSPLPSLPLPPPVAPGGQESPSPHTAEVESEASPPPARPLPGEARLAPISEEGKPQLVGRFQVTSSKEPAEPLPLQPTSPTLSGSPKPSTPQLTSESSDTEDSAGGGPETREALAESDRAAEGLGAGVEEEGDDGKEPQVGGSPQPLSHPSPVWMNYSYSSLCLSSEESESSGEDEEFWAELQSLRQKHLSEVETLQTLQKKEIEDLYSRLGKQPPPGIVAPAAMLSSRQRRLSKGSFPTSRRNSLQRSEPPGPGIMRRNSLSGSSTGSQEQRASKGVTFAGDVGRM

Sample 1
Cell line: mouse MPNST tumor cells
Method: high-content nuclear imaging
Item: cell number
Tested at: 10 µM
Time: 12 h
Setting: mean of 2 replicates
Reference: plate mean
Direction: higher = more cells
SMILES	nuclei count
Cc1cccc(Nc2cc(Cl)nc(SCC(=O)O)n2)c1C	1.71 z-score
CCN(CC)CC1CCN(c2ncc3ncnc(Nc4ccc(F)c(Cl)c4)c3n2)CC1	-5.42 z-score
CC(C)(C(=O)c1cccnc1)c1cccnc1	1.92 z-score and 0.666 z-score
O=C(Nc1ccc(S(=O)(=O)Nc2ccccc2Cl)c(Cl)c1)c1ccccn1	-0.534 z-score
COc1ccccc1C(=O)Nc1cccc(NC(=O)c2cccc(C)c2)c1	1.26 z-score
COc1ccc(CCCn2ncc3c2nc(N)n2nc(-c4ccco4)nc32)cc1	0.351 z-score

Sample 2
Target: Ephrin type-A receptor 6 (EPHA6, Homo sapiens, UniProt Q9UF33)
Chain of UniProt Q9UF33 (whole entry, looked up): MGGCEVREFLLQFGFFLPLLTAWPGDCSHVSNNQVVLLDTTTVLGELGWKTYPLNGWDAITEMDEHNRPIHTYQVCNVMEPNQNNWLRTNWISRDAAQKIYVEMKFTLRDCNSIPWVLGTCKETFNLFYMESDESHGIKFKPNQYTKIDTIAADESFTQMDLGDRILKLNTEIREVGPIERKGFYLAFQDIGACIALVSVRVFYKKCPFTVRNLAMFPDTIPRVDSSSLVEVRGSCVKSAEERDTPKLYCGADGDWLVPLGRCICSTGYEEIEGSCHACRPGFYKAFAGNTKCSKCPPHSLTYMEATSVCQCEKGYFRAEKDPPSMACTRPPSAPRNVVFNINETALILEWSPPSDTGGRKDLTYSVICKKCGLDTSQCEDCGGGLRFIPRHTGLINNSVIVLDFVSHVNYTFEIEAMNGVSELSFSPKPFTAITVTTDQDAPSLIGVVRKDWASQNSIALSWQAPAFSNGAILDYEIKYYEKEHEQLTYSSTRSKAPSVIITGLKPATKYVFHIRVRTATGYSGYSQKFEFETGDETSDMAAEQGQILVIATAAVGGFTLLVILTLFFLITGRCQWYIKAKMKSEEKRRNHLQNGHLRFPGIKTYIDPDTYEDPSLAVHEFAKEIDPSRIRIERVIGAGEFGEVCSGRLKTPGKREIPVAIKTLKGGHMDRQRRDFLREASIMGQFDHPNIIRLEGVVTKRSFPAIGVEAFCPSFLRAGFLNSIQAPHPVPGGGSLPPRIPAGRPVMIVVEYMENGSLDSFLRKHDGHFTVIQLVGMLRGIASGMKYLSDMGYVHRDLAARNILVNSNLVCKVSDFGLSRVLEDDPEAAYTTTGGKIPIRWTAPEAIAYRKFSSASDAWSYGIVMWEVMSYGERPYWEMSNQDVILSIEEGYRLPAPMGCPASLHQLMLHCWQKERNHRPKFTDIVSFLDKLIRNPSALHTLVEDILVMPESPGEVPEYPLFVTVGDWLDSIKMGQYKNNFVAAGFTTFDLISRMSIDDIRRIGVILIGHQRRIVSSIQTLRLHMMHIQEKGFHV
Observed: enzyme activity
Action: inhibitor
Tested at: 0.5 µM
Reference: control
SMILES	remaining activity
O=C(O)c1ccc2c3c1cccc3c(=O)n1c3ccccc3nc21	105%
COc1cc2ncnc(Nc3ccc(Oc4ccccc4)cc3)c2cc1OC	64.8%
N#CC(C#N)=C(N)/C(C#N)=C/c1ccc(O)cc1	98.6%
O=C(CCCc1ccc(-c2ccccc2F)cc1)Nc1ccc(O)cc1	89.6%
Nc1ccc2ncnc(NCCc3ccc(Oc4ccccc4)cc3)c2c1	92.8%
COc1cc2ncnc(Nc3ccc(F)c(Cl)c3)c2cc1OCCCN1CCOCC1	28.9%
Cc1cccc(-c2[nH]c(C(C)(C)C)nc2-c2ccc3c(c2)OCO3)n1	92.7%
O=C1NC(=O)C(c2cn(CCCn3ccnc3)c3ccccc23)=C1Nc1ccccc1	106%
Cc1ccc(NC(=O)c2ccc(CN3CCN(C)CC3)cc2)cc1Nc1nc(-c2cccnc2)cs1	98.2%
NCCNc1ncc(C(N)=O)c(Nc2cccc(C(F)(F)F)c2)n1	96.9%
Cc1nc(-c2ccccc2)c(-c2ccncc2)o1	95.9%
CCOC(=O)c1c(C)[nH]c(/C=C2\C(=O)Nc3ccccc32)c1C	80%
CO[C@H]1C[C@@H]2CC[C@@H](C)[C@@](O)(O2)C(=O)C(=O)N2CCCC[C@H]2C(=O)O[C@H]([C@H](C)C[C@@H]2CC[C@@H](O)[C@H](OC)C2)CC(=O)[C@H](C)/C=C(\C)[C@@H](O)[C@@H](OC)C(=O)[C@H](C)C[C@H](C)/C=C/C=C/C=C/1C	99%
C#Cc1cccc(Nc2ncnc3cc(OCCOC)c(OCCOC)cc23)c1	40.4%
COc1cc2nccc(Oc3ccc(NC(=S)NC(=O)c4ccccc4C)cc3)c2cc1OC	33%
Oc1ccc(-c2nc(-c3ccncc3)c(-c3ccc(F)cc3)[nH]2)cc1	57.3%

Sample 3
Structure (SMILES): O=C(Nc1cnc(Oc2ccc(F)cc2)nc1)N1CCc2ncccc2[C@@H]1c1ccc(F)cc1
Method: competition with immobilised ligand
Tested at: 1 µM
target	assay	remaining binding [%]
Cyclin-dependent kinase 11A (CDK11A, Homo sapiens, UniProt Q9UQ88)	binding	91
Receptor-interacting serine/threonine-protein kinase 4 (RIPK4, Homo sapiens, UniProt P57078)	cell-free assay	100
Serine/threonine-protein kinase WNK4 (WNK4, Homo sapiens, UniProt Q96J92)	cell-free assay	81
Serine/threonine-protein kinase RIO3 (RIOK3, Homo sapiens, UniProt O14730)	cell-free assay	89
Calcium/calmodulin-dependent protein kinase type II subunit beta (CAMK2B, Homo sapiens, UniProt Q13554)	cell-free assay	92

Sample 4
Species: mouse
Matrix: microsomes or S9
Tested at: 2 µM
Time: 0.5 h
Structure (SMILES)	remaining compound [%]
c1ccc2c(c1)CCN(c1nc(N3CCOCC3)c3nn[nH]c3n1)C2	74.9
CCc1ccc(N2C=NS(=O)(=O)c3cccnc32)cc1	46.2
Cc1[nH]c(=O)[nH]c(=O)c1S(=O)(=O)N1CCC(C(=O)NCCC(C)C)CC1	70
O=C(c1cccs1)N1c2nc(C3CCCCC3)nn2C2(CCCCC2)[C@@H]2CCCC[C@@H]21	0.686
COc1ccc(-c2cn3c4ccccc4nc3n2CCN2CCN(C)CC2)cc1	2.96
CC(C)n1c(=O)ccc2cnc(N[C@H]3CC[C@H](CN(C)C)CC3)nc21	79.8
CC(=O)c1cc(CN2CCOCC2CC(=O)NCCc2ncnn2C)cs1 (stereo not shown)	94.9

A few entries again (sample 2):
SMILES	remaining activity
COc1cc2ncnc(Nc3ccc(Oc4ccccc4)cc3)c2cc1OC	64.8%
N#CC(C#N)=C(N)/C(C#N)=C/c1ccc(O)cc1	98.6%
O=C(CCCc1ccc(-c2ccccc2F)cc1)Nc1ccc(O)cc1	89.6%
Nc1ccc2ncnc(NCCc3ccc(Oc4ccccc4)cc3)c2c1	92.8%
COc1cc2ncnc(Nc3ccc(F)c(Cl)c3)c2cc1OCCCN1CCOCC1	28.9%
Cc1cccc(-c2[nH]c(C(C)(C)C)nc2-c2ccc3c(c2)OCO3)n1	92.7%
